Results pooled from the literature.
Each numbered part is a random draw from the data of one study; scales do not carry over between parts.
Sequence of UniProt P10721 (whole entry, unmodified, looked up): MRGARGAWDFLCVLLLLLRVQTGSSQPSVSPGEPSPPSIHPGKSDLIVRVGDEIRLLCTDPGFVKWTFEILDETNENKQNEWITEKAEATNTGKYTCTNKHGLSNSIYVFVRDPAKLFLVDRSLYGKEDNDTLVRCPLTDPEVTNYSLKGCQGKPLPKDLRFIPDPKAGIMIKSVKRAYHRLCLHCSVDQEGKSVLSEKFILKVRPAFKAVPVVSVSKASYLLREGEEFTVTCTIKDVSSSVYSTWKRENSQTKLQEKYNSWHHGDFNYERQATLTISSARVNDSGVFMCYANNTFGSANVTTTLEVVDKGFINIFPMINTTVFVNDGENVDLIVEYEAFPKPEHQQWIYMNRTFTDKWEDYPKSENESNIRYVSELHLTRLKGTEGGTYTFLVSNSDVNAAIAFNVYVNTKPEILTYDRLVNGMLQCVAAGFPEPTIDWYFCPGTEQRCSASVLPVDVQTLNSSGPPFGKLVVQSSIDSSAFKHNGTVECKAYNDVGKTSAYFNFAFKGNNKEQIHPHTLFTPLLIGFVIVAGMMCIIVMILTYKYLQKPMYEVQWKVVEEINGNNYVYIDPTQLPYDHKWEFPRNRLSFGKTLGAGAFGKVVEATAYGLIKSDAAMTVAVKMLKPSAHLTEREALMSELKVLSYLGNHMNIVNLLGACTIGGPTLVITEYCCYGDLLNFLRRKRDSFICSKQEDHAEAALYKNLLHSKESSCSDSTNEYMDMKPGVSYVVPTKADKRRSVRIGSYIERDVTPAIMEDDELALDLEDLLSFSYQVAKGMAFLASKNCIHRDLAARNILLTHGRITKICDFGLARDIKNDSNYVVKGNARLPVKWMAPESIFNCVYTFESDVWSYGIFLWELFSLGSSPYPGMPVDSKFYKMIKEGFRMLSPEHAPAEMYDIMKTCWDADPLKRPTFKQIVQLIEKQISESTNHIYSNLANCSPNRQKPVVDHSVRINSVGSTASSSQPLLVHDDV
Sequence of UniProt Q6ZWH5 (whole entry, looked up): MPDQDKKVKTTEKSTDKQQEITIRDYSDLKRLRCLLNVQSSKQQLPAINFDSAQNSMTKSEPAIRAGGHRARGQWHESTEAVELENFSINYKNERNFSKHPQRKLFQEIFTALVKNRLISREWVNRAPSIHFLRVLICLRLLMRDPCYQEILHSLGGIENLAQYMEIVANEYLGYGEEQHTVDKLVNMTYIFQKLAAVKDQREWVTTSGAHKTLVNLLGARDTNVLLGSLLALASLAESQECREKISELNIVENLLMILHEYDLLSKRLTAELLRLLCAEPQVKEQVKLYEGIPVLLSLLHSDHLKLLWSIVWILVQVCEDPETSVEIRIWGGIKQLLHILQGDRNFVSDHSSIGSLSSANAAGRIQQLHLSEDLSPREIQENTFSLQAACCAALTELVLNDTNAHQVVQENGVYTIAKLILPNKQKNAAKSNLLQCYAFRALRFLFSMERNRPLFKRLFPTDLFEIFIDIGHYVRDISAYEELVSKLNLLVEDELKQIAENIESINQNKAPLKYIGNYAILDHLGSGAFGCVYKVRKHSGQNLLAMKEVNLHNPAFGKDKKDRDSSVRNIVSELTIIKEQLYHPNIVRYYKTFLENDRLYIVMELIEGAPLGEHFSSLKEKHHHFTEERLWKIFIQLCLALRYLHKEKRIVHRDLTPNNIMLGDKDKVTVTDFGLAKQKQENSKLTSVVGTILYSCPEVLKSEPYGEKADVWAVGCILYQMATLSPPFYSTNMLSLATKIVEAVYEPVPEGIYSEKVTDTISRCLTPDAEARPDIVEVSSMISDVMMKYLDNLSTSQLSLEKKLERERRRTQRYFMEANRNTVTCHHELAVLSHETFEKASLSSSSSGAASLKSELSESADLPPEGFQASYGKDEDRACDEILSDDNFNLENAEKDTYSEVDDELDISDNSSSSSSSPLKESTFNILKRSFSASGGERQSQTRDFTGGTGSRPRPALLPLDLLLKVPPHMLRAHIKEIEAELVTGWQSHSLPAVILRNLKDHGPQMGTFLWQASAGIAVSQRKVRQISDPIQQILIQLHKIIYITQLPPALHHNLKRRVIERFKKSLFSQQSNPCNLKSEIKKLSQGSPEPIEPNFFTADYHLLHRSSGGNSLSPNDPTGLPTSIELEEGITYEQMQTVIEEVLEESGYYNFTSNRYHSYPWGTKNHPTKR
Sequence of UniProt O00750 (whole entry, looked up): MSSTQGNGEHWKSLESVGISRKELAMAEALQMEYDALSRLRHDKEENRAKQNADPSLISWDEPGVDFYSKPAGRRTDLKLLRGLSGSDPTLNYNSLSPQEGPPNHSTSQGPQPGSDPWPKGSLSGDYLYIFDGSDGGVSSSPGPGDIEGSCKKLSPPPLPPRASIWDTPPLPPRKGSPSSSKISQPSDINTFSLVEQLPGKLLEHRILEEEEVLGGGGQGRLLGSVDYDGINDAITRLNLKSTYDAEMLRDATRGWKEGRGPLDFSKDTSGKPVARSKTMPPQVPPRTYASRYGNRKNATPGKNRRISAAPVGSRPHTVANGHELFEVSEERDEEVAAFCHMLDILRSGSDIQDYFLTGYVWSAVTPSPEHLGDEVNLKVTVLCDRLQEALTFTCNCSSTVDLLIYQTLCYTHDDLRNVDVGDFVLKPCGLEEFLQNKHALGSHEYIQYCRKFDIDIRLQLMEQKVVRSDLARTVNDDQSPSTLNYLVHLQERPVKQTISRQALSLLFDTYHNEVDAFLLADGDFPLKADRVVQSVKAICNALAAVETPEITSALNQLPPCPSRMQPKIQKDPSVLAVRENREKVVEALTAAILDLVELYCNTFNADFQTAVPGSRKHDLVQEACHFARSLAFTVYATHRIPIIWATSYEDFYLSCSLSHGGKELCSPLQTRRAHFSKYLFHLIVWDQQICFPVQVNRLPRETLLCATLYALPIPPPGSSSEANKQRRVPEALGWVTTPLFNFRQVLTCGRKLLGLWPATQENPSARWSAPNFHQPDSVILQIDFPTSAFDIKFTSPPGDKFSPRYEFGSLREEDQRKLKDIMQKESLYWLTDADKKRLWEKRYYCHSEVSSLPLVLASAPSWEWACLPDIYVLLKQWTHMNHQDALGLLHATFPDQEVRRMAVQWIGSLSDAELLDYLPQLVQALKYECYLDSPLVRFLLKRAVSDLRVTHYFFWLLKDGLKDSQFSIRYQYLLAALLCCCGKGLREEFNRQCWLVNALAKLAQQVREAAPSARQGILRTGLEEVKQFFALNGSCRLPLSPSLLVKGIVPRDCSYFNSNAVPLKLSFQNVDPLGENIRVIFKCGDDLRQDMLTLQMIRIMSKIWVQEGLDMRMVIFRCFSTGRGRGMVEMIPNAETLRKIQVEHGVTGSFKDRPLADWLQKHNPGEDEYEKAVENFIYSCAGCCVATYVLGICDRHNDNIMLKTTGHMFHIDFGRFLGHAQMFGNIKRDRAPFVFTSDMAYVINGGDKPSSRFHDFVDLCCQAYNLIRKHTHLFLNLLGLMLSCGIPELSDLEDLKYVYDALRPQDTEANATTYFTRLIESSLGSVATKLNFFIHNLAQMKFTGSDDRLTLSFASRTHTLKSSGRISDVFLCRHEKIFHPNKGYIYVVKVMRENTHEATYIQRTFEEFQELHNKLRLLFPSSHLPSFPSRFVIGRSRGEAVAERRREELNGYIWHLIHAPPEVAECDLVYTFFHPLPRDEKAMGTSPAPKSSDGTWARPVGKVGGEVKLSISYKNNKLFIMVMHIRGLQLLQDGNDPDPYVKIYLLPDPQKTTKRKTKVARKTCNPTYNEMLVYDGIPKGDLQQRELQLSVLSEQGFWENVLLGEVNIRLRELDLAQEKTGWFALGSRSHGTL
Sequence of UniProt Q13546 (whole entry, looked up): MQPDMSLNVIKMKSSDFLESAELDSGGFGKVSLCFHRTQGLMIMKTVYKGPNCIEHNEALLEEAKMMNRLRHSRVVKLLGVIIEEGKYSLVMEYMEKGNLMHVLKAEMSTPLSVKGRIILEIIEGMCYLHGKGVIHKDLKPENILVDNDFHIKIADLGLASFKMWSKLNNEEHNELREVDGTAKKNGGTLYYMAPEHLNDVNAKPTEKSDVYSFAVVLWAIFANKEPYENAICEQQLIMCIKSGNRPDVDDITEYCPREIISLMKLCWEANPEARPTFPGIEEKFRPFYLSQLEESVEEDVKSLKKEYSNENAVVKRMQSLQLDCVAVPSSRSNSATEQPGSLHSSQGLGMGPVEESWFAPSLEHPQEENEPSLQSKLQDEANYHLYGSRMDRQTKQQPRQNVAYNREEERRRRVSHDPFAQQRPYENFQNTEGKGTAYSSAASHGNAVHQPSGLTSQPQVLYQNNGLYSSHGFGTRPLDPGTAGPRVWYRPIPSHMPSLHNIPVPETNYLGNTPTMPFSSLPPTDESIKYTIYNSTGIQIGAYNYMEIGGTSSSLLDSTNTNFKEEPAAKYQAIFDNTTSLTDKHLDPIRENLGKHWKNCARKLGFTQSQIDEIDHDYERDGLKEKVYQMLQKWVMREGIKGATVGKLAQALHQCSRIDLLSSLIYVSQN

Study 1
Target: Calcium/calmodulin-dependent protein kinase type II subunit alpha (CAMK2A, Homo sapiens, UniProt Q9UQM7)
Sequence of UniProt Q9UQM7 (whole entry, looked up): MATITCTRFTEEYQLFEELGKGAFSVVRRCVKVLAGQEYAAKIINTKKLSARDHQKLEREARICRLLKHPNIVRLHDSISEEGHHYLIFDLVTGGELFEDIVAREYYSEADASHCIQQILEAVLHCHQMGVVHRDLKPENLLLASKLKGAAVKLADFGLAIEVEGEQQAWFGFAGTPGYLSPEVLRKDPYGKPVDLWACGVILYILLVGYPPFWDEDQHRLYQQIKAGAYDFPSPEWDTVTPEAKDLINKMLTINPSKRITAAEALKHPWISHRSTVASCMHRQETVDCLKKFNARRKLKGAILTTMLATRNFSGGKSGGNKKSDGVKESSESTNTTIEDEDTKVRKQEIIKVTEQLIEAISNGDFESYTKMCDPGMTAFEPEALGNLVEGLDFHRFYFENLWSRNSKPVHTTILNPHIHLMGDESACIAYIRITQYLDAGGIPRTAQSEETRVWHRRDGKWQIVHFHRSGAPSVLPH
Effect on: enzyme activity
Action: inhibitor
Tested at: 10 µM
SMILES	inhibition [%]
Cn1cnc(C[C@H](N)C(=O)O)c1	-13
CC(C)=CCC[C@](C)(O[C@@H]1O[C@H](CO)[C@@H](O)[C@H](O)[C@H]1O)[C@H]1CC[C@]2(C)[C@@H]1[C@H](O)C[C@@H]1[C@@]3(C)CC[C@H](O[C@@H]4O[C@H](CO)[C@@H](O)[C@H](O)[C@H]4O[C@@H]4O[C@H](CO)[C@@H](O)[C@H](O)[C@H]4O)C(C)(C)[C@@H]3CC[C@]12C	-20
C/C=C1\[C@H](O[C@@H]2O[C@H](CO)[C@@H](O)[C@H](O)[C@H]2O)OC=C(C(=O)OC)[C@H]1CC(=O)OC[C@H]1O[C@@H](OCCc2ccc(O)cc2)[C@H](O)[C@@H](O)[C@@H]1O	-23
CN1CCN(CC/C=C2/c3ccccc3Sc3ccc(S(=O)(=O)N(C)C)cc32)CC1	2
O=C(O[C@H]1C[N+]2(CCCOc3ccccc3)CCC1CC2)C(O)(c1cccs1)c1cccs1	-11
CC(C)=CCc1c(O)cc(O)c2c(=O)c(-c3ccc(O)cc3)coc12	-3
COc1cc(C)c2c(=O)cc(C[C@@H](C)O)oc2c1[C@@H]1O[C@H](CO)[C@@H](O)[C@H](O)[C@H]1OC(=O)/C=C/c1ccc(O)cc1	-18
Cc1oncc1C(=O)Nc1ccc(C(F)(F)F)cc1	-3
C[C@H]1O[C@@H](O[C@H]2CC[C@@]3(C)[C@@H](CC[C@]4(C)[C@@H]3C=CC3=C5CC(C)(C)CC[C@]5(CO)[C@H](O)C[C@]34C)[C@]2(C)CO)[C@H](O)[C@@H](O[C@@H]2O[C@H](CO)[C@@H](O)[C@H](O)[C@H]2O)[C@H]1O	-23
O=C1O[C@@H]2[C@@H](O)[C@H](O)[C@@H](CO)O[C@H]2c2c1cc(O)c(O)c2O	-8
O=C(Nc1ccc(O)cc1)c1ccccc1O	-5

Study 2
Compound: COc1ccc(-c2c(Nc3ccccn3)[nH]c3c(C4=CCCCC4)c(-c4ccccc4)nn3c2=O)cc1
Sample: plasma
test	system	conditions	geometric mean concentration
LC-MS/MS, measured: S-adenosylmethionine		oral, 50 mg once daily, 8 h, cycle 1 day 1	23.2 ng/mL
measured: S-adenosylmethionine	human patients	200 mg once daily, 4 h	13.4 ng/mL
measured: S-adenosylmethionine	human patients	150 mg once daily, 8 h	18 ng/mL
measured: methionine	human patients	100 mg once daily, 4 h	85000 ng/mL
LC-MS/MS, measured: S-adenosylmethionine		oral, 50 mg once daily, 2 h, cycle 1 day 1	22 ng/mL
measured: S-adenosylmethionine	human patients	100 mg once daily, 0 h	18 ng/mL
measured: methionine	human patients	100 mg once daily, 8 h	81500 ng/mL
measured: methionine	human patients	150 mg once daily, 8 h	116000 ng/mL

Study 3
SMILES: Cc1c(NC(=O)c2cc(C(N)=O)nc3cc(F)ccc23)c(C(F)(F)F)nn1Cc1ccc(C#N)cc1
Effect on: cell-free assay
Method: competition with immobilised ligand
Tested at: 1 µM
target	remaining binding [%]
DCLK3 (Homo sapiens, UniProt Q9C098)	92
SRMS (Homo sapiens, UniProt Q9H3Y6)	62
FGFR4 (Homo sapiens, UniProt P22455)	100
KIT (Homo sapiens, UniProt P10721, V559D/V654A)	58
PIK3C2B (Homo sapiens, UniProt O00750)	81
RIPK1 (Homo sapiens, UniProt Q13546)	100
CAMK2A (Homo sapiens, UniProt Q9UQM7)	100
CLK4 (Homo sapiens, UniProt Q9HAZ1)	87
Ribosomal protein S6 kinase alpha-3, N-terminal kinase domain (RPS6KA3, Homo sapiens, UniProt P51812)	82
CIT (Homo sapiens, UniProt O14578)	81
MAP3K14 (Homo sapiens, UniProt Q99558)	72
KIT (Homo sapiens, UniProt P10721, T670I/V559D)	89
NEK10 (Homo sapiens, UniProt Q6ZWH5)	83

Mixed results
Structure (SMILES)	target	effect on	tested at	endpoint	value
C#Cc1cccc(Nc2ncnc3cc(OCCOC)c(OCCOC)cc23)c1	Cyclin-dependent kinase 9, with cyclin K (CDK9, Homo sapiens, UniProt P50750)	cell-free assay	0.5 µM	remaining signal	102%

Some of these lines once more (study 1):
SMILES	inhibition [%]
O=C1O[C@@H]2[C@@H](O)[C@H](O)[C@@H](CO)O[C@H]2c2c1cc(O)c(O)c2O	-8
O=C(O[C@H]1C[N+]2(CCCOc3ccccc3)CCC1CC2)C(O)(c1cccs1)c1cccs1	-11
CC(C)=CCc1c(O)cc(O)c2c(=O)c(-c3ccc(O)cc3)coc12	-3
CN1CCN(CC/C=C2/c3ccccc3Sc3ccc(S(=O)(=O)N(C)C)cc32)CC1	2
